Results gathered from unrelated publications.
Compare with care: the assays were run in different laboratories.

Cc1cc(OCCOCCC(F)(F)P(=O)(O)O)ccc1CCc1cnc2c(N)nc3cc(CCC(=O)O)ccc3c2c1
patients with non-serious AE (measured: fatigue; adults with advanced solid tumours; dose not given, by treatment group, all grades): 9.5%

CCN(CCO)CCCC(C)Nc1ccnc2cc(Cl)ccc12 (stereo not shown)
patients with adverse event (measured: Dizziness grade 1; newly diagnosed glioblastoma patients; oral, 400 mg/dose, with radiotherapy and temozolomide): 14%

O=C1Nc2cc3[nH]nc(-c4ccncc4)c3cc2CN1Cc1ccccc1
patients with TEAE (measured: abdominal pain; patients with advanced solid tumours; intravenous, dose not given, both schedules pooled): 15%

CCn1c2ccccc2c2cc(CN3CCN(Cc4cccc(Cl)c4)CC3)ccc21
cytotoxicity efficacy (Vero-E6; CellTiter-Glo ATP; concentration not given, 72 h, retest 8-point duplicates; relative to: DMSO 0%, hyamine -100%, more negative, more toxic): 0%

CN1CC[C@@H](c2c(O)cc(O)c3c(=O)cc(-c4ccc(C(F)(F)F)cc4Cl)oc23)[C@@H]1CO
patients with adverse event (measured: Anorexia; B-cell malignancies or AML; oral, 50 mg, continuous dosing): 0%

Nc1nc2cc(-c3ccc4ncc(C(=O)N5CCOCC5)n4c3)ccc2o1
patients with adverse event (measured: Hyperglycemia; advanced solid tumour patients; dose not given, all grades, all doses): 37%

N[C@@H]1c2ccccc2OC12CCN(c1cnc3c(N4CCCc5ncccc54)n[nH]c3n1)CC2
patients with grade ≥3 TEAE (advanced solid tumour patients; oral, 60 mg once daily): 40%

COc1c(OCCCN2CCOCC2)ccc2c1N=C(NC(=O)c1cnc(N)nc1)N1CCN=C21
patients with adverse event (measured: Anorexia; patients with advanced malignancies; intravenous, dose not given, any grade, all cohorts, with: gemcitabine): 64%

CC(=O)c1c(C)c2cnc(Nc3ccc(C4CCN(CCS(C)(=O)=O)CC4)cn3)nc2n(C2CCCC2)c1=O
patients with anaemia (HR+/HER2- advanced breast cancer patients; oral, dose not given, all grades, dose escalation, sample B patients): 31.6%

CO[C@H]1C[C@@H]2CC[C@@H](C)[C@@](O)(O2)C(=O)C(=O)N2CCCC[C@H]2C(=O)O[C@H]([C@H](C)C[C@@H]2CC[C@@H](OC(=O)NCCOCCOCCOCCOCCOCCOCCOCCOCCC(=O)N3CCc4cc(Cn5nc(-c6ccc7oc(N)nc7c6)c6c(N)ncnc65)ccc4C3)[C@H](OC)C2)C[C@@H](O)[C@H](C)/C=C(\C)[C@@H](O)[C@@H](OC)C(=O)[C@H](C)C[C@H](C)/C=C/C=C/C=C/1C
patients with AE (measured: grade ≥3 treatment-related mucositis; patients with advanced solid tumours; intravenous, 8 to 12 mg, DM plus TM, weekly): 6%

C[C@@H]1OC(=O)NN=C1c1ccc(-c2ccc(F)cc2)c(C(F)(F)F)c1
patients with AST increased (patients, phase I trial; oral, 5 mg once daily, any grade TEAE): 0%

COc1ccc(-c2cn3c(n2)sc2cc(C(=O)NCCCN4CCCCCC4)ccc23)cc1
maximum response (Vero-E6; CellTiter-Glo ATP; 72 h, second round 5-point; relative to: DMSO 0%, hyamine -100%, more negative, more toxic): -25.3%

C=CCNc1c(O)cc2c(O)c1C[C@@H](C)C[C@H](OC)[C@H](O)[C@@H](C)/C=C(\C)[C@H](OC(N)=O)[C@@H](OC)/C=C\C=C(/C)C(=O)N2
patients with vomiting TEAE (unresectable or metastatic STS, GIST, other; intravenous, 300 mg/m^2): 33%

Some of these lines once more:
CC(=O)c1c(C)c2cnc(Nc3ccc(C4CCN(CCS(C)(=O)=O)CC4)cn3)nc2n(C2CCCC2)c1=O
patients with anaemia (HR+/HER2- advanced breast cancer patients; oral, dose not given, all grades, dose escalation, sample B patients): 31.6%

CO[C@H]1C[C@@H]2CC[C@@H](C)[C@@](O)(O2)C(=O)C(=O)N2CCCC[C@H]2C(=O)O[C@H]([C@H](C)C[C@@H]2CC[C@@H](OC(=O)NCCOCCOCCOCCOCCOCCOCCOCCOCCC(=O)N3CCc4cc(Cn5nc(-c6ccc7oc(N)nc7c6)c6c(N)ncnc65)ccc4C3)[C@H](OC)C2)C[C@@H](O)[C@H](C)/C=C(\C)[C@@H](O)[C@@H](OC)C(=O)[C@H](C)C[C@H](C)/C=C/C=C/C=C/1C
patients with AE (measured: grade ≥3 treatment-related mucositis; patients with advanced solid tumours; intravenous, 8 to 12 mg, DM plus TM, weekly): 6%
